Measured values from different studies.
Lines come from different studies, so protocols differ. Values joined by “and” are separate records of one study, mostly repeats; a detail may differ. Numbers after ± are the reported error.
MT-CYB/UQCRFS1: MT-CYB/UQCRFS1 (Homo sapiens, UniProt P00156+P47985)
UniProt P47985, sequence (whole entry, looked up): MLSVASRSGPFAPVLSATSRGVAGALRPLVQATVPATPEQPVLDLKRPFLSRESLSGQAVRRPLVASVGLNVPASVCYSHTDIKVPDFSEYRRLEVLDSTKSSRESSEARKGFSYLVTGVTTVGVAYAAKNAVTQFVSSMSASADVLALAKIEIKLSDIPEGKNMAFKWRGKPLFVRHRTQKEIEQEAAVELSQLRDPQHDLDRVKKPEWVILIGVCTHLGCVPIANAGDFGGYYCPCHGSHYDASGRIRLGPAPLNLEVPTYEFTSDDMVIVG
UniProt P00156, sequence (whole entry, looked up): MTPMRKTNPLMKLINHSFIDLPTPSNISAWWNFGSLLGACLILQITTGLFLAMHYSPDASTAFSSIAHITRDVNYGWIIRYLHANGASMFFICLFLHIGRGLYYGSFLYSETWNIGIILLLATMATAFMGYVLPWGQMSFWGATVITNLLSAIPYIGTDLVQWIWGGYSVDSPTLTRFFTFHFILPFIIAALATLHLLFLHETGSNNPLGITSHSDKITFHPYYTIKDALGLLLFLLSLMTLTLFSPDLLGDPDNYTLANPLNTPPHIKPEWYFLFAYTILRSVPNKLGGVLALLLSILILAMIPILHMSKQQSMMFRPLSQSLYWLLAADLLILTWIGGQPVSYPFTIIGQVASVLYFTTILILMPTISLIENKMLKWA
Dehaloperoxidase B ferric: Dehaloperoxidase B, ferric (Amphitrite ornata, UniProt Q9NAV7)
T1: ssDNA, aptamer; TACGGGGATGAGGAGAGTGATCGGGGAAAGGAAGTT
UniProt Q16774, sequence (whole entry, looked up): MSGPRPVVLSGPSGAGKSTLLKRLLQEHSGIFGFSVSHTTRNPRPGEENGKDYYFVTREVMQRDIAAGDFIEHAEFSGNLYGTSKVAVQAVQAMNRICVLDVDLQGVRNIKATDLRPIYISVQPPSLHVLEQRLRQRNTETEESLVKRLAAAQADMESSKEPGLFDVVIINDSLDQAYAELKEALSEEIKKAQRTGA
UniProt P11388, sequence (whole entry, looked up): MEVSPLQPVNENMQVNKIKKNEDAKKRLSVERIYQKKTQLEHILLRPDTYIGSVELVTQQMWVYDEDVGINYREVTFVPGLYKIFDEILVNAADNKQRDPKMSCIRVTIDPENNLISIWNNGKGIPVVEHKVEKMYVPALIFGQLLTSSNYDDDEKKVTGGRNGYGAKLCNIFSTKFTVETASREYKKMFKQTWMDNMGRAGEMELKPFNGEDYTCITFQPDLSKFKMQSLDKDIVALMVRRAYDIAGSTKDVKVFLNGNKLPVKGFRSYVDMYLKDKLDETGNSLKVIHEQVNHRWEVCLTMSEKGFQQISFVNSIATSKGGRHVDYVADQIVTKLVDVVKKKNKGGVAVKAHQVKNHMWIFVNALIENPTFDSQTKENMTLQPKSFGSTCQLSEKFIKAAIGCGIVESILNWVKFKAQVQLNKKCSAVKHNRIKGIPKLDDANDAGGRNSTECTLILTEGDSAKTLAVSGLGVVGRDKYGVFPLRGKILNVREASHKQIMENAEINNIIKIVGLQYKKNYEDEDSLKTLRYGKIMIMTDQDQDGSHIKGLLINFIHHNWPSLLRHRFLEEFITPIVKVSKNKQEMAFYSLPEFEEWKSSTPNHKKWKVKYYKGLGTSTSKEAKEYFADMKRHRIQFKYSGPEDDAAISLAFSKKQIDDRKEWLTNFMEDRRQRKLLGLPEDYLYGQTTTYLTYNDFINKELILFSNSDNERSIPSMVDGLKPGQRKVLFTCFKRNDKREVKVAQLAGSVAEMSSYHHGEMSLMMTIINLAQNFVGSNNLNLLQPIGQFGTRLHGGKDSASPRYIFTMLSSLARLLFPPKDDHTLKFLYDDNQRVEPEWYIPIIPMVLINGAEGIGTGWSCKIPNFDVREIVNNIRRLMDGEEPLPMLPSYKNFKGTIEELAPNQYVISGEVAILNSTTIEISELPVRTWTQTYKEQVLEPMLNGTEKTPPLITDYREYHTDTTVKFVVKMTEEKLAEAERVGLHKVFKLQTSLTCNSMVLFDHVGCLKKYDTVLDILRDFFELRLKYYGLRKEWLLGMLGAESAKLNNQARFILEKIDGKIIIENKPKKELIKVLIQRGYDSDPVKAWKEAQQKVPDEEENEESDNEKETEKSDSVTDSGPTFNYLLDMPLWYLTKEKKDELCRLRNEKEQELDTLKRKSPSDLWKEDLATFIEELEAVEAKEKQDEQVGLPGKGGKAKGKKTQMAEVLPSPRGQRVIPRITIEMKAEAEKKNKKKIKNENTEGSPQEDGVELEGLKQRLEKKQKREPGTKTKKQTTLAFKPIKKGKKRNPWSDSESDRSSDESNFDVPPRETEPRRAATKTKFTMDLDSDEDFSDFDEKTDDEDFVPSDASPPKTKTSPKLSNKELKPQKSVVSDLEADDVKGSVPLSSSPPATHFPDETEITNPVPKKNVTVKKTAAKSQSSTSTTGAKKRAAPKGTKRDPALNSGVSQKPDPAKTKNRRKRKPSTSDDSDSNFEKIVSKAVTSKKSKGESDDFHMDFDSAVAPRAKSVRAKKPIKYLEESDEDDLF
UniProt Q14145, sequence (whole entry, unmodified, looked up): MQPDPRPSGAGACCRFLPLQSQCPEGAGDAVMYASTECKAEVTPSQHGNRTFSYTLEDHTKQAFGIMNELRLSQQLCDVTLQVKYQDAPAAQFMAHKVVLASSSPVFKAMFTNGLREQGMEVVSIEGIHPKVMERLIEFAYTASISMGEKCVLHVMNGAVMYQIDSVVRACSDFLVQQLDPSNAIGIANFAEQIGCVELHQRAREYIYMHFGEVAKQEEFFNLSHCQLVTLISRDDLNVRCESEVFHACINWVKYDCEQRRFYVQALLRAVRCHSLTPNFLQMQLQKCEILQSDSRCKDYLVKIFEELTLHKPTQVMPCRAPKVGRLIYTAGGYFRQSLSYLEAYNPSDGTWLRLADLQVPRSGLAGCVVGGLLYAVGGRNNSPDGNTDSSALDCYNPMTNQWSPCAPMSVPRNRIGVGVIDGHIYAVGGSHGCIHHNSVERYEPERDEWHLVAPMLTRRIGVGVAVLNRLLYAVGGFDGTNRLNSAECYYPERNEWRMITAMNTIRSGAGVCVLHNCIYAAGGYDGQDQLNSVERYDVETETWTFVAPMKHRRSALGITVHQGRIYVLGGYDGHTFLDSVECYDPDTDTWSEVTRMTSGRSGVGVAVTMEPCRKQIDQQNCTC
UniProt Q8K3Y3, sequence (whole entry, looked up): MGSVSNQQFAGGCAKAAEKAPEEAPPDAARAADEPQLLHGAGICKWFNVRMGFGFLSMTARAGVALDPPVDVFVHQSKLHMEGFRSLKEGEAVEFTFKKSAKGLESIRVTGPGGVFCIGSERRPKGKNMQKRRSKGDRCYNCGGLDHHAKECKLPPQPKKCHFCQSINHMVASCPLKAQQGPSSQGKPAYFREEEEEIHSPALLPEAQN
UniProt Q12791, sequence (whole entry, looked up): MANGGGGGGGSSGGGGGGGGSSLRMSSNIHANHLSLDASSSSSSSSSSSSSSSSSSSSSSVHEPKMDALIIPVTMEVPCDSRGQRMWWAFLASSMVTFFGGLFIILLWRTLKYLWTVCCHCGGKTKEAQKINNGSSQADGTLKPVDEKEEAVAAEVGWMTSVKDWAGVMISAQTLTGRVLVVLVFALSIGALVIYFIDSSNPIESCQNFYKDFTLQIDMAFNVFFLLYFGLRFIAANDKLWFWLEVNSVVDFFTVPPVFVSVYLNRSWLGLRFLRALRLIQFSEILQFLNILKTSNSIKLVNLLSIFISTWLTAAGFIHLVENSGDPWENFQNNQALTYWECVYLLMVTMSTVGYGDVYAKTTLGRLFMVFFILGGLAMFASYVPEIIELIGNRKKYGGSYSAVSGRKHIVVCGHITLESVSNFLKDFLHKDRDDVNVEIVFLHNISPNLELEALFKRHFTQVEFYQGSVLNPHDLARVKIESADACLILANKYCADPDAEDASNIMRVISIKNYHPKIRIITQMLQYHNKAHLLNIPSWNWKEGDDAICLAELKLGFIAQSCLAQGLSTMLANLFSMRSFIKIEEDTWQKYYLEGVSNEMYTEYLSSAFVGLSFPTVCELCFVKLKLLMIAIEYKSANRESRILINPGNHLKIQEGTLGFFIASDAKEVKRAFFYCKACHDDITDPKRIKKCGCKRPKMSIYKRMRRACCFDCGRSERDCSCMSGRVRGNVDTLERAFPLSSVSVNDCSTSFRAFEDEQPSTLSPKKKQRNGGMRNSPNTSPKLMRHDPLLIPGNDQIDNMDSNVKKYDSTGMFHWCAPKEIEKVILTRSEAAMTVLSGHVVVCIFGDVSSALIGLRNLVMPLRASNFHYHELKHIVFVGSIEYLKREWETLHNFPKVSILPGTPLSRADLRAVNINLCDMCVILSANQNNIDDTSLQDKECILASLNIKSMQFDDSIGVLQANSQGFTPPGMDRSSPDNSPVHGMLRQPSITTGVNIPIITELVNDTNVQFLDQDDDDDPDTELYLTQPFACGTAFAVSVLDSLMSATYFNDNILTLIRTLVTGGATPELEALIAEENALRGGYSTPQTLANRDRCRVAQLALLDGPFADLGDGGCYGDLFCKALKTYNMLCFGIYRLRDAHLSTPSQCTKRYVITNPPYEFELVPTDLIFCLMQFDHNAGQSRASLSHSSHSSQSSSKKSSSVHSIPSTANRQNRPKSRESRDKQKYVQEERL
UniProt P31941, sequence (whole entry, looked up): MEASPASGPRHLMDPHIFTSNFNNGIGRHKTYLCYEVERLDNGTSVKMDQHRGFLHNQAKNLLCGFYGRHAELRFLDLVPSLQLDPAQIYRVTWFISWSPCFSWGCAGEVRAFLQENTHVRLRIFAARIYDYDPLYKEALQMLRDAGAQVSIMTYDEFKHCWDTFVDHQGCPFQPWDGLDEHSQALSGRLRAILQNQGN
UniProt P41143, sequence (whole entry, looked up): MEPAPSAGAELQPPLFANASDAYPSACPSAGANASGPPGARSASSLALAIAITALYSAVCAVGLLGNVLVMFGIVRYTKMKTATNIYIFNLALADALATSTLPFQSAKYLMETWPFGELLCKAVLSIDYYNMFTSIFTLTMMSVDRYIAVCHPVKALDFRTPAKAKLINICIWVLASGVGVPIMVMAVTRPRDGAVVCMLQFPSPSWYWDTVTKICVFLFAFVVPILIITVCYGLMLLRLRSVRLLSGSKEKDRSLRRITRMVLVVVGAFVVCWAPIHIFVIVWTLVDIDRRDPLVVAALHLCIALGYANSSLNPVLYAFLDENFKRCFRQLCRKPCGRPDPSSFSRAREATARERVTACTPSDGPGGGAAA

For `C=CC(=O)N1CCC(C(=O)NCC(=O)N2CCN(c3nc(-c4cnc(N)nc4C(F)F)nc(N4CCOCC4)n3)CC2)CC1`, the remaining binding was 71% (TRPM6 (Homo sapiens, UniProt Q9BX84); KINOMEscan; 1 µM).
The Hill slope of `NC1=NN(c2ccc(Oc3ccccc3)c(S(=O)(=O)O)c2)C(=O)C1` is reported as -0.9 (Protein lin-28 homolog A (Mus musculus, UniProt Q8K3Y3)).
`Oc1ccc(/C=C/c2cc(O)cc(O)c2)cc1`: “ΔG of binding” -7.41 kcal/mol (O-methyltransferase (Sorghum bicolor, UniProt A0A1B6PFV1); concentration not given, with: ADE+).
`O=c1c(-c2ccc(O[C@@H]3O[C@H](CO)[C@@H](O)[C@H](O)[C@H]3O)cc2)coc2cc(O)cc(O)c12` has an inhibition of 30.1% (THP-1; pyroptotic LDH release; 2 µM, 40 min, with: LPS then nigericin).
`CC(C)(O)c1ccccc1CC[C@@H](SCC1(CC(=O)O)CC1)c1cccc(/C=C/c2ccc3ccc(Cl)cc3n2)c1`: “BAL fluid total cells” “decreased” (Cysteinyl leukotriene receptor 1 (Mus musculus, UniProt Q99JA4); female MC-Cysltr2 knockout mice, lung; intraperitoneal, 30 mg/kg).
With `O=c1ccn([C@@H]2O[C@H](COP(=O)(O)OP(=O)(O)O)[C@@H](O)[C@H]2O)c(=O)[nH]1` the koff was 560 ± 10 s⁻¹ (ABO (Homo sapiens, UniProt P16442, G235S/G268A/L266M/R176G/W181M); methyl-TROSY NMR titration lineshape; mutant presaturated with H-disaccharide).
`NC(=O)NOCCCCCCCCCCCC[P+](c1ccccc1)(c1ccccc1)c1ccccc1.O=C([O-])C(F)(F)F`: “oxygen consumption rate” 35 ± 16.2% (MT-CYB/UQCRFS1; complex III-dependent respiration, Seahorse XF96; HCT-116; 4 µM, 24 h; reference: control).
`Nc1nc2c(ncn2[C@@H]2O[C@H](COP(=O)(O)O)[C@@H](O)[C@H]2O)c(=O)[nH]1` gave a reaction velocity of 0.0342 µM/s and 0.0278 µM/s and 0.0459 µM/s (GUK1 (Homo sapiens, UniProt Q16774); enzyme activity, NADH-coupled; 15.62 µM, with: NaCl 150 mM).
Under “koff fast phase”, `CC[C@H](C)[C@@H]1NC(=O)[C@H](C)NC(=O)[C@H]([C@@H](C)CC)NC(=O)[C@H](CCC(N)=O)NC(=O)[C@H](C)NC(=O)[C@H](CCCNC(=N)N)NC(=O)[C@H](C(C)C)NC(=O)[C@H](CC(C)C)NC(=O)[C@H](CCC(=O)O)NC(=O)[C@H](CCCNC(=N)N)NC(=O)CNC(=O)[C@@H](NC(=O)[C@H](CC(C)C)NC(=O)[C@H](CCCCN)NC(=O)[C@@H](NC(=O)[C@@H](NC(=O)[C@H](CCC(=O)O)NC(=O)[C@H](CCC(=O)O)NC(=O)[C@H](CCSC)NC(=O)[C@H](Cc2c[nH]c3ccccc23)NC(=O)[C@H](CO)NC(=O)[C@@H](N)CC(=O)O)C(C)C)[C@@H](C)CC)CSSC[C@@H]2NC(=O)[C@@H](NC(=O)[C@H](CCCCN)NC(=O)[C@H](CC(N)=O)NC(=O)[C@H](C)NC(=O)[C@H](CC(C)C)NC(=O)[C@H](C)NC(=O)[C@H](CO)NC(=O)[C@H](Cc3ccc(O)cc3)NC(=O)[C@H](CC(C)C)NC(=O)[C@H](CCC(N)=O)NC(=O)c3ccc(-c4c5ccc(=[N+](C)C)cc-5oc5cc(N(C)C)ccc45)c(C(=O)[O-])c3)CSSC[C@H](NC(=O)CNC(=O)[C@H](C(C)C)NC(=O)[C@H](Cc3c[nH]cn3)NC2=O)C(=O)N[C@@H]([C@@H](C)O)C(=O)N[C@@H](CCCCN)C(=O)N[C@@H](CCCNC(=N)N)C(=O)N[C@@H](CO)C(=O)N[C@@H](CC(C)C)C(=O)N[C@@H](C)C(=O)N[C@@H](CCCNC(=N)N)C(=O)N[C@@H](Cc2ccccc2)C(=O)N[C@H](C(=O)O)CSSC[C@@H](C(=O)NCC(=O)N[C@@H](CCSC)C(=O)N[C@@H](CO)C(=O)N[C@H](C(=O)N[C@@H](Cc2c[nH]c3ccccc23)C(=O)N[C@@H](CO)C(=O)O)[C@@H](C)O)NC1=O` is recorded as 0.00852 s⁻¹ (Relaxin receptor 1 (RXFP1, Homo sapiens, UniProt Q9HBX9, F76A/Y80A); NanoBRET dissociation; infinite dilution, with: 10 nM relaxin).
Under “oxygen consumption rate”, `NC(=O)NOCCCCCCCCCCCCCCCCCCCC[P+](c1ccccc1)(c1ccccc1)c1ccccc1.O=C([O-])C(F)(F)F` is recorded as 98.8% (MT-CYB/UQCRFS1; complex III-dependent respiration, Seahorse XF96; HCT-116; 0.03 µM, 24 h; reference: control).
`CC1CCCN(C(=O)c2cc3ncccn3n2)C1` (stereo not shown) has a fold enrichment of 0.785 (YTHDF2 (Homo sapiens, UniProt Q9Y5A9); binding, affinity selection mass spectrometry; reference: other proteins in batch).
`NC(=O)NO` — result for “oxygen consumption rate”: 94.4 ± 3.28% (MT-CYB/UQCRFS1; complex III-dependent respiration, Seahorse XF96; HCT-116; 3000 µM, 24 h; reference: control).
`CC(=O)N[C@H](C(=O)N1C[C@H](O)C[C@H]1C(=O)NCc1ccc(-c2scnc2C)cc1)C(C)(C)SCCCCCCNC(=O)C[C@@H]1N=C(c2ccc(Cl)cc2)c2c(sc(C)c2C)-n2c(C)nnc21` has a ΔG of -10.2 ± 0.1 kcal/mol (Bromodomain-containing protein 4, BD2 (BRD4, Homo sapiens, UniProt O60885); ITC; 25 °C, binary).
`Nc1ncnc2c1ncn2[C@@H]1O[C@H](COP(=O)(O)OP(=O)(O)OP(=O)(O)O)[C@@H](O)[C@H]1O` gave a Kd of 1.76 µM (T1, ssDNA, aptamer; molecular beacon fluorescence quenching).
For `NC/C(=C\F)COc1cccc(Cn2c(=S)[nH]c(=O)c3[nH]cnc32)c1`, the H2O2 concentration was -0.113 µM (Myeloperoxidase (MPO, Homo sapiens, UniProt P05164); H2O2 consumption, inhibitor, H2O2 electrode; 10 µM, 0.2 s).
Under “surface TFRC expression”, `CC[C@@H](C)[C@@H](NC(=O)[C@@H](Cc1ccc(O)cc1)NC(=O)[C@H]1CCCN1C(=O)[C@@H](CCCNC(=N)N)NC(=O)[C@H](N)Cc1c[nH]cn1)C(=O)N[C@H](C)C(=O)N[C@H](Cc1c[nH]cn1)C(=O)N[C@H](CCCNC(=N)N)C(=O)N[C@@H](C(=O)N[C@H](Cc1ccc(O)cc1)C(=O)N[C@H](CO)C(=O)N[C@H](Cc1ccccc1)C(N)=O)C(C)C` is recorded as 0.907 (Transferrin receptor protein 1 (Tfrc, Mus musculus, UniProt Q62351); flow cytometry; DC2.4; 48 h, pH 6, replicate 2, unit not given; reference: 0 h).
`CN(C)C(=O)C(CCN1CCC(O)(c2ccc(Cl)cc2)CC1)(c1ccccc1)c1ccccc1` gave a normalized Gmax of 0.806 ± 0.039 (Calcium-activated potassium channel subunit alpha-1, with LRRC26 γ1 subunit (KCNMA1, Homo sapiens, UniProt Q12791); BK current, inhibitor, inside-out patch clamp; excised membrane patch; 0.3 µM, γ1 coexpressed, individual fits, with: nominally 0 Ca2+ cytosolic; reference: without loperamide).
`CCCCOc1cc(C(=O)NCCN(CC)CC)c2ccccc2n1` — result for “inactivation V1/2 shift”: -69 mV (PKD2L1 (Homo sapiens, UniProt Q9P0L9); ion current, whole-cell patch clamp; concentration not given, 2 s prepulse; reference: untreated).
`CCCC(CCC)c1nc2c(Nc3ccc(C#CCCCCCCCCN)cc3)nc3ccccc3c2[nH]1`: off-target affinity “inactive” (OPRD1 (Homo sapiens, UniProt P41143); PDSP screening).
For `C=CC(=O)N1CCN(c2nc(OC[C@@H]3CCCN3C)nc3c(F)c(-c4nc(N)cc(C)c4C(F)(F)F)c(Cl)cc23)[C@@H](C)C1`, “dissociation rate constant koff” read 0.328 ± 0.22 s⁻¹ (GTPase KRas, GDP-bound (KRAS, Homo sapiens, UniProt P01116, G12V); SPR).
`O=C1Nc2ccc(Br)cc2C1O` (stereo not shown): “share of total products” 8.7% (Dehaloperoxidase B ferric; product, HPLC; with: 5-bromoindole 500 µM, H2O2 50 µM).
`O=C(COP(=O)(O)O)[C@@H](O)[C@H](O)[C@H](O)COP(=O)(O)O`: “concentration for maximal activation” 732 ± 170 nM (Pyruvate kinase PKM (PKM, Homo sapiens, UniProt P14618); enzyme activity, activator).
For `O=c1nc(SCc2cc(F)cc(C(F)(F)F)c2)nc(SCc2ccc3sccc3c2)[nH]1`, “ATP hydrolysis rate” read 2.58 µM/min and 2.33 µM/min (TOP2A (Homo sapiens, UniProt P11388); ATPase activity; 1.95 µM, with: ATP 0.75 mM).
With `CCCC[C@H]1C(=O)N(C)[C@@H](CCCC)C(=O)N[C@@H](CCCCNC(=O)CN2CCN(CC(=O)O)CCN(CC(=O)O)CC2)C(=O)N[C@H](C(=O)NCC(N)=O)CSCC(=O)N[C@@H](Cc2ccc(O)cc2)C(=O)N(C)[C@@H](C)C(=O)N[C@@H](CC(N)=O)C(=O)N2CCC[C@H]2C(=O)N[C@@H](Cc2c[nH]cn2)C(=O)N[C@@H](CCC(=O)O)C(=O)N2C[C@H](O)C[C@H]2C(=O)N[C@@H](Cc2c[nH]c3ccccc23)C(=O)N[C@@H](CO)C(=O)N[C@@H](Cc2cn(CC(=O)O)c3ccccc23)C(=O)N1C` [gallium-68 labelled] the cell uptake was 28.1% (CD274 (Homo sapiens, UniProt Q9NZQ7); U-87 MG; 60 min).
For `CCN(CCO)CCCC(C)Nc1ccnc2cc(Cl)ccc12` (stereo not shown), the FLuc/RLuc ratio was 0.97 (Protein transport protein Sec61 subunit alpha isoform 1 (Homo sapiens, UniProt P61619); Sec61-dependent translocation, inhibitor, measured: CD4 signal peptide-FLuc reporter; HEK293; concentration not given; reference: mock).
`CC[C@H](C)[C@H](NC(=O)[C@@H]1CCCN1C(=O)[C@H](CC(C)C)NC(=O)[C@H](Cc1ccccc1)NC(=O)[C@H](CCC(=O)O)NC(=O)CNC(=O)[C@@H](NC(=O)[C@H](CCC(=O)O)NC(=O)[C@H](CCC(=O)O)NC(=O)[C@H](CC(=O)O)NC(=O)[C@H](CC(C)C)NC(=O)[C@H](CCC(N)=O)NC(=O)[C@H](CC(C)C)NC(=O)[C@H](CCC(N)=O)NC(=O)[C@H](C)NC(=O)[C@H](Cc1ccccc1)NC(C)=O)[C@@H](C)O)C(=O)N[C@@H](CCC(N)=O)C(=O)N1CCC[C@H]1C(=O)N[C@@H](C)C(=O)N[C@@H](CCC(N)=O)C(N)=O` gave a ΔG of -10.38 ± 0.03 kcal/mol (Kelch-like ECH-associated protein 1, Kelch domain (KEAP1, Homo sapiens, UniProt Q14145); binding, ITC; pH 7, 298.15 K).
`O=CNc1ccc(Br)cc1C=O`: “share of total products” 0.6% (Dehaloperoxidase B ferric; product, HPLC; with: 5-bromoindole 500 µM, H2O2 50 µM).
`CCC1(O)CCCN(C(=O)c2ccc(-c3ccc(F)c(NC(=O)CCl)c3)cc2)C1` (stereo not shown) gave a protein adduct of 92% (DNA dC->dU-editing enzyme APOBEC-3A (Homo sapiens, UniProt P31941); covalent modifier, intact protein mass spectrometry, measured: adduct +26309 Da; 500 µM, 1 h, 20-fold molar excess).

For quick reference, copied from above:
`O=c1c(-c2ccc(O[C@@H]3O[C@H](CO)[C@@H](O)[C@H](O)[C@H]3O)cc2)coc2cc(O)cc(O)c12` has an inhibition of 30.1% (THP-1; pyroptotic LDH release; 2 µM, 40 min, with: LPS then nigericin).
`CC(C)(O)c1ccccc1CC[C@@H](SCC1(CC(=O)O)CC1)c1cccc(/C=C/c2ccc3ccc(Cl)cc3n2)c1`: “BAL fluid total cells” “decreased” (Cysteinyl leukotriene receptor 1 (Mus musculus, UniProt Q99JA4); female MC-Cysltr2 knockout mice, lung; intraperitoneal, 30 mg/kg).
With `O=c1ccn([C@@H]2O[C@H](COP(=O)(O)OP(=O)(O)O)[C@@H](O)[C@H]2O)c(=O)[nH]1` the koff was 560 ± 10 s⁻¹ (ABO (Homo sapiens, UniProt P16442, G235S/G268A/L266M/R176G/W181M); methyl-TROSY NMR titration lineshape; mutant presaturated with H-disaccharide).
`NC(=O)NOCCCCCCCCCCCC[P+](c1ccccc1)(c1ccccc1)c1ccccc1.O=C([O-])C(F)(F)F`: “oxygen consumption rate” 35 ± 16.2% (MT-CYB/UQCRFS1; complex III-dependent respiration, Seahorse XF96; HCT-116; 4 µM, 24 h; reference: control).
